Measurements from different studies.
Parts stem from different laboratories: compare values within a part only. Positions count from the first letter of the parent shown.

Study 1 — technique: RNAcompete; form: RNA; sample: in vitro; tested at: 20 nM; setting: 7-mer, probes averaged, single round; reference: mean of 7-mers; reading: higher = stronger binding
Target: PABPC1L2, full length, GST fusion (mouse, UniProt A0ABA7IW68)
Construct (chain): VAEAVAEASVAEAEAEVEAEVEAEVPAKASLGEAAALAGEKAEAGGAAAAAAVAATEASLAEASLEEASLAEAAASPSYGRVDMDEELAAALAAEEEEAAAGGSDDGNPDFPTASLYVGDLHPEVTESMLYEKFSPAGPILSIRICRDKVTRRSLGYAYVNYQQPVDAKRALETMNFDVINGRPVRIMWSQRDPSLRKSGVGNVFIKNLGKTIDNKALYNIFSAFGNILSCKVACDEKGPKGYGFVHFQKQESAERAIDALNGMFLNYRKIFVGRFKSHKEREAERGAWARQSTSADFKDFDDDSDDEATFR
| Sequence | 7-mer Z-score |
| --- | --- |
| GGAUAUC | -0.135 |
| GACCAAA | 1.24 |
| UACGGGG | 0.151 |
| UUCCUUC | -0.271 |
| GUCCUGC | -0.338 |
| ACCCUCU | -0.335 |
| CGACUGU | -0.177 |
| UUUGAUG | -0.354 |

Study 2 — target: CRIPT, C-terminal peptide; technique: DHFR complementation, deep sequencing; sample: yeast; reference: wild type; reading: higher = weaker binding
Setting: single substitutions, model-inferred values
Parent: ERBIN, PDZ domain 1 (human); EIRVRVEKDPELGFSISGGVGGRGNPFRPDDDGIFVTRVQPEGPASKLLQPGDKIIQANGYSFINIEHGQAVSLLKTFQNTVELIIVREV; partner TKNYKQTSV
| Substitution | binding free energy change [kcal/mol] |
| --- | --- |
| K54F | 0.764 |
| V39M | 0.263 |
| L84T | 0.894 |
| S15A | 0.146 |
| V36G | 0.726 |
| L48A | 0.122 |
| P10H | -0.58 |
| P51Q | 0.235 |

Mixed results
| Molecule | tested on | assay | system | setting | how to read | endpoint | result |
| --- | --- | --- | --- | --- | --- | --- | --- |
| O=S(=O)(CCc1ccccc1)NCCc1csc2nc(-c3ccccc3F)nn12 |  |  | mouse, microsomes or S9 | 2 µM, 0.5 h |  | remaining compound | 4.71% |
| PhoQ, residues 284 288 289 292 302 303 AGCYAI | PhoP, residues 12 14 15 18 19 LWHSL (Escherichia coli, UniProt P23836) | Sort-seq, item: YFP reporter | E. coli | PhoQ-PhoP variant library, added: 10 µM Mg2+ | reference: high Mg2+ state, higher = stronger signaling | fold induction | 13.6 |
| DDX5 (Homo sapiens, UniProt P17844) | BRSK2 (Homo sapiens, UniProt Q8IWQ3) | cross-linking MS | cells | added: BSPNO |  | cross-linked residues | K391 to M1 |

Repeated from above (study 2):
| Substitution | binding free energy change [kcal/mol] |
| --- | --- |
| P10H | -0.58 |
| P51Q | 0.235 |
